Measured values pooled from the literature.
Lines come from different studies, so protocols differ. Numbers after ± are the reported error.
Organism: Acinetobacter baumannii

Molecule | assay | system | conditions | scale | MIC
CCCCCCCCCC(=O)N[C@@H](CCN)C(=O)N[C@H](C(=O)N[C@H](C(=O)N[C@H](CC(C)C)C(=O)N[C@@H](CC(C)C)C(=O)N[C@@H](CCN)C(=O)N[C@@H](C(=O)N[C@@H](CC(C)C)C(=O)N[C@@H](CO)C(N)=O)C(C)C)[C@@H](C)O)[C@@H](C)CC | checkerboard, item: rifampicin | ATCC 19606 | sensitization to antibiotics, added: compound at 4 µg/mL | – | > 0.125 µg/mL
CC1(C)SC2C(NC(=O)C(NC(=O)C3=C(O)C(Cc4ccco4)NC3=O)c3ccccc3)C(=O)N2C1C(=O)O (stereo not shown) | microbial growth, broth dilution | ATCC19606 | – | – | 50 µg/mL
CCCCCCCC(=O)N[C@@H](CCN)C(=O)N[C@@H](CCN)C(=O)N[C@@H](CCN)C(=O)N[C@H](Cc1ccccc1)C(=O)N[C@@H](CC(C)C)C(=O)N[C@@H](CCN)C(=O)N[C@@H](C(=O)N[C@@H](CC(C)C)C(=O)N[C@@H](CCN)C(N)=O)C(C)C | checkerboard, item: rifampicin | ATCC 19606 | sensitization to antibiotics, added: compound at 4 µg/mL | – | 0.0313 to 0.0625 µg/mL
CC(C)(C)OCC1NC(=O)C(C(=O)NC(C(=O)NC2C(=O)N3C2SC(C)(C)C3C(=O)O)c2ccccc2)=C1O (stereo not shown) | microbial growth, broth dilution | ATCC19606 | – | – | 100 µg/mL
CCOC(=O)c1c(N)csc1-c1cn(-c2ccccc2)nc1-c1ccc(C)cc1 | broth microdilution | clinical urinary isolate | compound gamma-irradiated 20 kGy | – | 0.124 ± 0.5 µg/mL
CCCCCC(=O)N[C@@H](CCN)C(=O)N[C@H](C(=O)N[C@@H](CCN)C(=O)N[C@H](Cc1ccccc1)C(=O)N[C@@H](CC(C)C)C(=O)N[C@@H](CCN)C(=O)N[C@@H](C(=O)N[C@@H](CC(C)C)C(=O)N[C@@H](CO)C(N)=O)C(C)C)[C@@H](C)CC | checkerboard, item: rifampicin | ATCC 19606 | sensitization to antibiotics, added: compound at 2 µg/mL | – | 0.0078 to 0.0156 µg/mL
CCn1cc(C(=O)NCCNCCO)c(=O)c2cc(OC)c(OCc3cc(F)cc(F)c3)cc21 | – | ATCC 19606 | – | ≥80% growth inhibition | < 0.25 µg/mL
CC1(C)SC2C(NC(=O)C(NC(=O)C3=C(O)CNC3=O)c3ccccc3)C(=O)N2C1C(=O)O (stereo not shown) | microbial growth, broth dilution | ATCC19606 | – | – | 50 µg/mL
gentamicin | – | clinical isolate | 18 h, pH 7 | – | 0.5 µg/mL
CC[C@H](C)[C@H](NC(=O)[C@H](CCN)NC(=O)[C@@H](N)CC1CCCCC1)C(=O)N[C@@H](CCN)C(=O)N[C@H](Cc1ccccc1)C(=O)N[C@@H](CC(C)C)C(=O)N[C@@H](CCN)C(=O)N[C@@H](C(=O)N[C@@H](CC(C)C)C(=O)N[C@@H](CO)C(N)=O)C(C)C | checkerboard, item: rifampicin | ATCC 19606 | sensitization to antibiotics, added: compound at 2 µg/mL | – | 0.0039 to 0.0078 µg/mL
Cc1c(NC(=O)CC2=NC(=O)CS2)c(=O)n(-c2ccccc2)n1C | microbial growth, broth dilution | – | – | – | 0.45 µg/mL
CC1(C)S[C@@H]2[C@H](NC(=O)C(C(=O)O)c3ccccc3)C(=O)N2[C@H]1C(=O)O (stereo partly shown) | microbial growth, broth dilution | ATCC19606 | – | – | 100 µg/mL
O=C(O)c1cn(C2CC2)c2cc(N3CCNCC3)c(F)cc2c1=O | microbial growth, broth dilution | ATCC19606 DSM30007 | 20 h | – | 2.3 µM
